Experimental data collected from several papers.
Compare with care: the assays were run in different laboratories. Several values in a cell are separate wells, animals, samples, runs or records. ± gives the spread as reported.
PTPN11: Tyrosine-protein phosphatase non-receptor type 11 (PTPN11, Homo sapiens, UniProt Q06124)
DCPS: m7GpppX diphosphatase (DCPS, Homo sapiens, UniProt Q96C86)
CASP8: Caspase-8 (CASP8, Homo sapiens, UniProt Q14790)
CASP10: Caspase-10 (CASP10, Homo sapiens, UniProt Q92851)
HSD3B1: 3 beta-hydroxysteroid dehydrogenase/Delta 5-->4-isomerase type 1 (HSD3B1, Homo sapiens, UniProt P14060)

| Compound | target | test | test system | setting | scale | quantity | value |
| --- | --- | --- | --- | --- | --- | --- | --- |
| Cc1cc(=O)oc2c(F)c(OP(=O)(O)O)c(F)cc12 | PTPN11 | dephosphorylation, substrate | – | basal enzyme | – | kcat | 70 ± 0.8 s⁻¹ |
| C[n+]1cn(C2OC(COP(=O)(O)OP(=O)([O-])C(Cl)(Cl)P(=O)(O)OP(=O)(O)OCC3OC(n4cnc5c(=O)[nH]c(N)nc54)C(O)C3O)C(O)C2O)c2nc(N)nc(O)c21 (stereo not shown) | DCPS | substrate, HPLC | – | concentration not given, 120 min | – | hydrolysis | 0% |
| O=C(CCCc1ccc2c(c1)OCCO2)NCCNC(=O)Cn1c(=O)[nH]c(=O)c2ccccc21 | Poly [ADP-ribose] polymerase 2 (PARP2, Homo sapiens, UniProt Q9UGN5) | enzyme activity, inhibitor | – | 0.5 µM | – | inhibition | 98% |
| O=c1cc(NCCO)c2ccccc2o1 | Alpha-1A adrenergic receptor (ADRA1A, Homo sapiens, UniProt P35348) | calcium mobilization, agonist | COS-7 | 500 µM | relative to: 3 µM ionomycin | agonist activity | 8.97 ± 2.04% |
| C[Si](C)(C)C[C@H](CN)CC(=O)O | Voltage-dependent calcium channel subunit alpha-2/delta-1 (Rattus norvegicus, UniProt P54290) | binding, radioligand binding | rat cerebral cortex membranes | 250 µM, added: [3H]gabapentin | – | inhibition | 91% |
| C#CCOC(=O)[C@]1(C)C=C(C(=O)OC(C)(C)C)C(=O)CC1 | Mitogen-activated protein kinase 8 (MAPK8, Homo sapiens, UniProt P45983) | enzyme activity, D-SENSOR | – | 44.44 µM, single replicate | – | normalized kinase activity | 0.585 and 0.639 and 0.628 |
| CCCCCC=CC=C1C(=O)C=CC1CC=CCCCC(=O)O (stereo not shown) | Enoyl-CoA delta isomerase 2 (ECI2, Homo sapiens, UniProt O75521) | competitive isoTOP-ABPP | proteome, soluble, MDA-MB-231 | 100 µM, 60 min, added: iodoacetamide probe | relative to: DMSO over compound-treated, higher = stronger cysteine blockade | isoTOP-ABPP competition ratio | 7.4 |
| CC(=O)N[C@@H](Cc1ccccc1)C(=O)N[C@@H](CC(=O)O)C(=O)N[C@@H](CCC(=O)O)C(=O)N1CCC[C@H]1C(=O)N[C@@H](CC(=O)O)C(=O)COC(=O)c1c(C)cccc1C | CASP8 | enzyme activity, inhibitor | – | – | – | kinact/KI | 1.51e+06 M⁻¹ s⁻¹ |
| C[n+]1cn(C2OC(COP(=O)(O)OP(=O)([O-])C(F)(F)P(=O)(O)OP(=O)(O)OCC3OC(n4cnc5c(=O)[nH]c(N)nc54)C(O)C3O)C(O)C2O)c2nc(N)nc(O)c21 (stereo not shown) | DCPS | substrate, HPLC | – | concentration not given, 30 min | – | hydrolysis | 26.2 ± 0.4% |
| C=C1C(=O)C2(C(=O)N3CCCCC3)CC(=O)CC1C2 (racemic) | PTPN11 | enzyme activity, covalent inhibitor | – | added: pNPP substrate | – | kinact/KI | 19.4 M⁻¹ s⁻¹ |
| CC[C@H](C)[C@H](NC(=O)[C@H](CCCC(=O)O)NC(=O)[C@H](CC(=O)O)NC(C)=O)C(=O)N[C@@H](CC(=O)O)C(=O)COC(=O)c1c(C)cccc1C | CASP10 | enzyme activity, inhibitor | – | – | – | kinact/KI | 101000 M⁻¹ s⁻¹ |
| CNCc1cc(-c2coc3cc(O)ccc3c2=O)ccc1Cl | HSD3B1 | [3H]-DHEA conversion | LNCaP | 0.1 µM, normalized to protein, unit not given | relative to: vehicle | DHEA metabolism | 1.01 |
| CC(=O)N[C@@H](CC(C)C)C(=O)N[C@H](C(=O)N[C@@H](Cc1ccc(O)cc1)C(=O)N[C@@H](CC(=O)O)C(=O)COC(=O)c1c(C)cccc1C)C(C)(C)C | CASP8 | enzyme activity, inhibitor | – | – | – | kinact/KI | 277000 M⁻¹ s⁻¹ |
| Fc1ccc(Nc2nc(NC3CCCCC3)c3cc(Br)ccc3n2)cc1F | Beta-2 adrenergic receptor (ADRB2, Homo sapiens, UniProt P07550, V152G) | β-arrestin2 recruitment, antagonist, BRET | – | mutant V152G | relative to: isoprenaline maximal response | maximal inhibition | 8.3% |
| N#CN1CC[C@H](C(=O)Nc2nc3c(s2)CN(C(=O)Cn2cc(COCCOCCOCCOCCNC(=O)CCCC[C@@H]4SC[C@@H]5NC(=O)N[C@@H]54)nn2)CC3)C1 | Ubiquitin carboxyl-terminal hydrolase 15 (USP15, Homo sapiens, UniProt Q9Y4E8) | probe binding, affinity probe, neutravidin pull-down LC-MS/MS | HEK293T, cell lysate | 5 µM, 1 h, mean of three replicates, unit not given | higher = more pulled down | iBAQ abundance | 1.81e+06 |
| O=c1c(-c2ccc(Cl)c(CN3CCCC3)c2)coc2cc(O)ccc12 | HSD3B1 | [3H]-DHEA conversion | LNCaP | 0.1 µM, normalized to protein, unit not given | relative to: vehicle | DHEA metabolism | 2.02 |
| CCCC[C@H](NC(C)=O)C(=O)N[C@@H](CCC(=O)O)C(=O)N[C@@H](CO)C(=O)N[C@@H](CC(=O)O)C(=O)COC(=O)c1c(C)cccc1C | CASP10 | enzyme activity, inhibitor | – | – | – | kinact/KI | 381000 M⁻¹ s⁻¹ |
| CC[C@H](C)[C@@H]1NC(=O)[C@H](Cc2ccccc2)NC(=O)[C@H](CCC(=O)O)NC(=O)[C@H](CCCNC(=N)N)NC(=O)CNC(=O)[C@@H](NC(=O)[C@H](CC(C)C)NC(=O)[C@H](CCCNC(=N)N)NC(=O)[C@@H](NC(=O)CNC(=O)[C@H](Cc2ccc(O)cc2)NC(=O)[C@@H]2CCCN2C(=O)[C@H](C)NC(=O)[C@H](C)NC(=O)[C@@H](N)CCCNC(=N)N)C(C)C)CSSC[C@@H]2NC(=O)[C@@H](NC(=O)[C@H](CO)NC(=O)[C@H](CO)NC(=O)[C@H](CO)NC(=O)[C@H](CC(C)C)NC(=O)CNC(=O)[C@H](C)NC(=O)[C@H](CC(C)C)NC(=O)[C@@H](NC(=O)[C@@H](N)CC(=O)O)C(C)C)CSSC[C@H](NC(=O)CNC(=O)[C@H](Cc3c[nH]c4ccccc34)NC(=O)[C@H](CCCCN)NC2=O)C(=O)N[C@@H](CO)C(=O)N[C@@H](CCCCN)C(=O)N[C@@H](CO)C(=O)N[C@@H](CCC(=O)O)C(=O)N[C@@H]([C@@H](C)CC)C(=O)N[C@@H](CO)C(=O)N[C@@H](CO)C(=O)N[C@@H](CC(C)C)C(=O)N[C@H](C(=O)O)CSSC[C@@H](C(=O)NCC(=O)NCC(=O)N[C@@H](CO)C(=O)N[C@@H](CCCNC(=N)N)C(=O)N[C@@H](Cc2c[nH]c3ccccc23)C(=O)O)NC(=O)[C@H]([C@@H](C)O)NC(=O)[C@H](Cc2ccccc2)NC(=O)[C@H]([C@@H](C)CC)NC(=O)[C@H](C(C)C)NC(=O)[C@H](C)NC(=O)[C@H](CCCNC(=N)N)NC1=O | Relaxin-3 receptor 2 (RXFP4, Homo sapiens, UniProt Q8TDU9, W279A) | – | – | W279A mutant, unit not given | relative to: wild type | ΔpEC50 | -0.307 and -0.142 and -0.965 |
| Cc1cnc2nc1Nc1cccc(c1)COC/C=C/COCc1cc(ccc1OCCN1CCOCC1)N2 | Non-receptor tyrosine-protein kinase TYK2, JH1 (TYK2, Homo sapiens, UniProt P29597) | cell-free assay | – | 0.1 µM | – | remaining signal | 57% |
| CC(=O)N[C@@H](CC(=O)O)C(=O)N[C@@H](Cc1ccc2ccccc2c1)C(=O)N[C@@H](C)C(=O)N[C@@H](CC(=O)O)C(=O)COC(=O)c1c(C)cccc1C | CASP8 | enzyme activity, inhibitor | – | – | – | kinact/KI | 108000 M⁻¹ s⁻¹ |
| CC(C=CC=C(C)C=CC1=C(C)CCCC1(C)C)=CC=O | Rhodopsin (RHO, Homo sapiens, UniProt P08100, E181K) | immunostaining, item: opsin | COS-7 transfected | 0.10 µM, unit not given | relative to: surface over total stained cells | plasma membrane localization | 0 |
| C1=[N+]2CCC[N+]3=Cc4ccc5[n]4[Au-]23[n]2c1ccc2-c1nc2ccccc2nc1-5.F[P-](F)(F)(F)(F)F | DNA topoisomerase 1 (TOP1, Homo sapiens, UniProt P11387) | – | – | 0.5 to 30 µM, added: 50 units TOP1 | – | linear DNA | < 1% |

A few entries again:
| Compound | target | test | test system | setting | scale | quantity | value |
| --- | --- | --- | --- | --- | --- | --- | --- |
| CC(=O)N[C@@H](CC(C)C)C(=O)N[C@H](C(=O)N[C@@H](Cc1ccc(O)cc1)C(=O)N[C@@H](CC(=O)O)C(=O)COC(=O)c1c(C)cccc1C)C(C)(C)C | CASP8 | enzyme activity, inhibitor | – | – | – | kinact/KI | 277000 M⁻¹ s⁻¹ |
| Fc1ccc(Nc2nc(NC3CCCCC3)c3cc(Br)ccc3n2)cc1F | Beta-2 adrenergic receptor (ADRB2, Homo sapiens, UniProt P07550, V152G) | β-arrestin2 recruitment, antagonist, BRET | – | mutant V152G | relative to: isoprenaline maximal response | maximal inhibition | 8.3% |
| N#CN1CC[C@H](C(=O)Nc2nc3c(s2)CN(C(=O)Cn2cc(COCCOCCOCCOCCNC(=O)CCCC[C@@H]4SC[C@@H]5NC(=O)N[C@@H]54)nn2)CC3)C1 | Ubiquitin carboxyl-terminal hydrolase 15 (USP15, Homo sapiens, UniProt Q9Y4E8) | probe binding, affinity probe, neutravidin pull-down LC-MS/MS | HEK293T, cell lysate | 5 µM, 1 h, mean of three replicates, unit not given | higher = more pulled down | iBAQ abundance | 1.81e+06 |
